Measurements from different studies.
Each line is one published result; not all experiments were run side by side. ± gives the spread as reported.

`O=C(O)COC[C@H]1CC[C@H](COC(=O)N(c2ccccc2)c2ccc(Cl)cc2)CC1` — result for “AUC(0-tau) at steady state”: 308 ng·h/mL (human; oral, 400 µg once daily, day 21).
The AUC(0-t) of `CS(=O)(=O)c1ccc(-c2cnc(N)c(-c3ccc(C(F)(F)F)nc3)c2)cc1` is reported as 3750 ng·h/mL (pregnant female Sprague-Dawley rat, plasma; oral, 3 mg/kg/day, gestation day 6).
For `CONC(=N)c1ccc(-c2ccc(-c3ccc(C(=N)NOC)cc3)o2)cc1`, the intrinsic clearance was 10 µL/min/mg (M1 formation by O-demethylation, substrate; pooled human intestinal microsomes; high-Km component).
The central Vd of `CCN1CCN(c2cc3c(cc2F)c(=O)c(C(=O)O)cn3C2CC2)CC1` is reported as 2.11 L (broiler chickens Ross, plasma; intravenous and oral, population PK typical value).
`CC1(C)S[C@@H]2[C@H](NC(=O)[C@H](N)c3ccccc3)C(=O)N2[C@H]1C(=O)O` gave an EC20 of > 400 µM (mitochondrial swelling; BALB/cByJ female mouse liver mitochondria; 30 min, with: succinate + rotenone; reference: CaCl2 maximal swelling).
`O=C(c1cccnc1-c1ccncc1)N1CCC(O)(Cc2ccccc2)CC1` has a Vz/F of 1320 L (healthy human, plasma; oral, 600 mg once daily, day 1, arithmetic mean).
For `CC(=O)N[C@H](CSSC[C@H](N)C(=O)O)C(=O)N[C@H](C)C(=O)N[C@H](CCCNC(=N)N)C(=O)N[C@H](CCCNC(=N)N)C(=O)N[C@H](CCCNC(=N)N)C(=O)N[C@H](C)C(=O)N[C@H](CCCNC(=N)N)C(N)=O`, “SAPC conjugation rate constant” read 0.007 min⁻¹ (human whole blood; 5 µM, 37 °C, with: SAPC 2.5 µM).
With `CNC(=O)c1ccc(-c2cnc3ncc(Cc4ccc5ncccc5c4)n3n2)cc1F` the Vz/F (mean) was 366 L (human, mild hepatic impairment (Child-Pugh A), plasma; oral, 200 mg single dose).
`CC[C@H](C)[C@H](NC(=O)[C@H](C)NC(=O)[C@H](CCCNC(=N)N)NC(=O)[C@H](CCCNC(=N)N)NC(=O)[C@H](CC(N)=O)NC(=O)[C@H](CCCNC(=N)N)NC(=O)[C@H](CCCNC(=N)N)NC(=O)[C@H](C)NC(=O)[C@@H](NC(=O)[C@H](CO)NC(=O)[C@@H](NC(=O)[C@@H](NC(=O)[C@H](CS)NC(=O)[C@H](CCCCN)NC(=O)[C@@H](N)CCCNC(=N)N)C(C)C)[C@@H](C)CC)C(C)C)C(=O)N[C@@H](CCCCN)C(=O)N[C@H](C(=O)N[C@@H](CC(C)C)C(=O)N[C@@H](CS)C(=O)N[C@@H](CC(N)=O)C(=O)O)[C@@H](C)CC`: “single disulfide form” 88% (LC-MS; PBS; 0.1 mg/mL).
`COc1cccc(N2CCN(C3=Nc4c(F)cccc4[C@H](CC(=O)O)N3c3cc(C(F)(F)F)ccc3OC)CC2)c1` gave a clearance of 72.7 ± 9.41 mL/min (UHPLC-MS/MS; healthy women, plasma; intravenous infusion, 720 mg single dose, 60 min infusion, HPβCD formulation).
Under “detoxification rate ratio”, `CC12CCC(CC1=O)C2(C)C` (stereo not drawn) is recorded as 7.6 fold (headspace GC; liver microsomes; 15 min, pH 7.4; reference: pygmy rabbit over mountain cottontail).
For `CC(=O)N[C@@H](Cc1ccccc1)C(=O)N[C@H]1CCCNC(=O)[C@H](CCCNC(=N)N)NC(=O)[C@H](Cc2c[nH]c3ccccc23)NC(=O)[C@@H](CC2CCCCC2)NC(=O)[C@@H]2CCCN2C1=O`, the elimination half-life was 0.168 h (C57BL/6J mice, plasma; intraperitoneal, 1 mg/kg).
For `CN1CCN(c2ccc3nc(-c4c(N)c5c(F)cccc5[nH]c4=O)[nH]c3c2)CC1`, the AUC was 3420 ng·h/mL (patients, plasma; oral, 300 mg, day 1, AUC 0-24 h median concurrent dosing, with: gemcitabine and capecitabine).
`O=C(O)[C@H](c1ccccc1Cl)N1CCc2sccc2C1` — result for “deviation from nominal”: -10% (HPLC-MS/MS; feline EDTA plasma; 48 h, -80 °C, storage stability).
`O=C1c2c(O)ccc(O)c2C(=O)c2c(NCCNCCO)ccc(NCCNCCO)c21` gave an EC20 of > 400 µM (cytochrome c release, ELISA; BALB/cByJ female mouse liver mitochondria; 30 min; reference: alamethicin maximal release).
`CCCOc1ccc([C@H]2CNC(=O)N2c2ccc3[nH]cnc3c2)cc1` gave an AUC(0-inf) of 66.1 ng·h/mL (human, plasma; oral, 10 mg, single dose, fasted).
For `CCCCN1CCCCC1C(=O)Nc1c(C)cccc1C` (stereo not drawn), the EC20 was > 800 µM (cytochrome c release, ELISA; BALB/cByJ female mouse liver mitochondria; 30 min; reference: alamethicin maximal release).
`Cc1cccc(C)c1N(CC(=O)Nc1ccc(-c2ncon2)cc1)C(=O)C1CCS(=O)(=O)CC1`: “AUCinf excess of radioactivity” ~25% (human; oral, 200 mg; reference: parent AUCinf).
`CCc1cc2c(C(=O)c3ccc(OC)cc3)cc(Br)c(O)c2o1` has a microsomal CLint of 42.8 µL/min/mg (metabolic stability; Sprague-Dawley rat, liver microsomes; 1 µM, pH 7.4).
With `CC(=O)Oc1ccccc1C(=O)O` the EC20 was > 200 µM (cytochrome c release, ELISA; BALB/cByJ female mouse liver mitochondria; 30 min; reference: alamethicin maximal release).
`CN1CCN(CCOc2cc(OC3CCOCC3)c3c(Nc4c(Cl)ccc5c4OCO5)ncnc3c2)CC1` gave an AUC(0-t) of 5490 ng·h/mL (beagle dog, both sexes; oral, 5 mg/kg/day, week 39, repeated daily dosing).
The median concentration of `O=S(=O)(O)Oc1c(O)cccc1O` is reported as 2.1 nM (human, fasted baseline, cerebrospinal fluid).
For `CC(C)[C@H](NC(=O)[C@@H]1CCCN1C(=O)[C@H](CCCNC(=N)N)NC(=O)[C@H](CS)NC(=O)[C@H](Cc1c[nH]c2ccccc12)NC(=O)[C@H](CCCNC(=N)N)NC(=O)[C@@H](Cc1ccccc1)NC(=O)[C@H](Cc1c[nH]cn1)NC(=O)[C@H](CCC(=O)O)NC(=O)[C@H](CS)NC(=O)[C@H](CS)NC(=O)[C@H](CCCCN)NC(=O)[C@@H]1CC(=O)N[C@@H](CCCNC(=N)N)C(=O)N[C@@H]([C@@H](C)O)C(=O)N[C@@H](CC(=O)O)C(=O)N[C@H](Cc2ccc(O)cc2)C(=O)N1)C(N)=O` [technetium-99m labelled], serum stability read “stable” (radio-HPLC; mouse serum; 24 h, 37 °C).
For `O=c1c(-c2ccc(O)cc2)coc2cc(O)cc(O)c12`, the EC20 was > 200 µM (mitochondrial swelling; BALB/cByJ female mouse liver mitochondria; 30 min, with: succinate + rotenone; reference: CaCl2 maximal swelling).
`N#Cc1ccnc(N2C(=O)CC[C@H]2C(=O)N(c2cncc(F)c2)[C@H](C(=O)NC2CC(F)(F)C2)c2ccccc2Cl)c1` — result for “accumulation ratio AUC0-24”: 2.35 (human newly diagnosed mIDH AML, plasma; oral, 500 mg once daily, with: induction chemotherapy; reference: cycle 1 day 14 over day 1).
The half-life of `CNCc1ccc(-c2[nH]c3cc(F)cc4c3c2CCNC4=O)cc1` is reported as 20.8 h (human patients, plasma; oral, 500 mg once daily, day 15, steady state, arithmetic mean).
`CCCC[C@H](NC(C)=O)C(=O)N[C@H]1CCC(=O)NC[C@@H](C(=O)N[C@@H](Cc2c[nH]c3ccccc23)C(N)=O)NC(=O)[C@H](CCCNC(=N)N)NC(=O)[C@@H](Cc2ccccc2)NC(=O)[C@H](Cc2c[nH]cn2)NC1=O` gave a Cmax of 1180 ng/mL (Sprague Dawley rats, female, plasma; subcutaneous, 25.0 mg/kg daily, day 28).
For `COCCCCn1c(C(=O)N(CC(C)C)[C@@H]2CNC[C@H](C(=O)N3CCOCC3)C2)nc2ccccc21`, the AUC(0-tau) was 6020 ng·h/mL (human, elderly, plasma; oral, 80 mg once daily, day 7, mean).
The AUC(0-8h) of `COc1cc(Nc2ncc3c(n2)-c2ccc(Cl)cc2C(c2c(F)cccc2OC)=NC3)ccc1C(=O)O` is reported as 6120 ± 2330 ng·h/mL (human, phase I; oral, 30 mg twice daily, with: combination with other drug).
`Cc1cc(NS(=O)(=O)c2ccc(N)cc2)no1` has an EC20 of > 400 µM (cytochrome c release, ELISA; BALB/cByJ female mouse liver mitochondria; 30 min; reference: alamethicin maximal release).
For `COc1cccc(-c2ccc(NC(=O)C3=C(C(=O)O)CCC3)c(F)c2)c1`, the AUC(0-24h) was 19700 ng·h/mL (human, male, fasted, plasma; oral, 10 mg, single dose, geometric mean).
The degradation of `CC(C)C[C@H](NC(=O)[C@H](Cc1ccc(O)cc1)NC(=O)[C@H](CC(N)=O)NC(=O)[C@H](CO)NC(=O)CNC(=O)[C@H](Cc1ccc(O)cc1)NC(=O)[C@H](CC(=O)O)NC(=O)CNC(=O)[C@H](Cc1ccc(O)cc1)NC(=O)[C@H](Cc1ccccc1)NC(=O)[C@@H]1CCCN1C(=O)[C@H](Cc1ccccc1)NC(=O)[C@H](CCC(=O)O)NC(=O)[C@H](CCCNC(=N)N)NC(=O)[C@H](Cc1c[nH]cn1)NC(=O)[C@H](CO)NC(=O)[C@H](Cc1c[nH]cn1)NC(=O)[C@H](Cc1c[nH]cn1)NC(=O)[C@H](CCCCN)NC(=O)[C@H](CCC(=O)O)NC(=O)[C@H](Cc1c[nH]cn1)NC(=O)[C@H](Cc1ccccc1)NC(=O)[C@H](CCCCN)NC(=O)[C@H](CCCNC(=N)N)NC(=O)[C@H](CCCNC(=N)N)NC(=O)[C@H](Cc1ccc(O)cc1)NC(=O)CNC(=O)[C@H](Cc1c[nH]cn1)NC(=O)[C@H](Cc1c[nH]cn1)NC(=O)[C@H](CCCNC(=N)N)NC(=O)[C@H](CCCCN)NC(=O)[C@H](CCC(=O)O)NC(=O)[C@H](Cc1c[nH]cn1)NC(=O)[C@H](CO)NC(=O)[C@@H](N)CC(=O)O)C(=O)N[C@@H](Cc1ccc(O)cc1)C(=O)N[C@@H](CC(=O)O)C(=O)N[C@@H](CC(N)=O)C(=O)O` is reported as ~43.3% (PAGE band density; whole saliva supernatant G2 and G3, diluted 1:10; 100 µg/mL, 48 h, 37 °C).
`CS(=O)(=O)n1cc2c(n1)CN([C@H]1CO[C@H](c3cc(F)ccc3F)[C@@H](N)C1)C2` gave an AUC(0-last) of 41 µM·h (healthy male human, plasma; oral, 50 mg, fasted single dose).
Under “absorption rate constant”, `CC[C@H](C)[C@H](NC(=O)[C@H](CCC(=O)O)NC(=O)[C@H](CO)NC(=O)[C@@H](NC(=O)[C@@H](N)CO)C(C)C)C(=O)N[C@@H](CCC(N)=O)C(=O)N[C@@H](CC(C)C)C(=O)N[C@@H](CCSC)C(=O)N[C@@H](Cc1cnc[nH]1)C(=O)N[C@@H](CC(N)=O)C(=O)N[C@@H](CC(C)C)C(=O)NCC(=O)N[C@@H](CCCCN)C(=O)N[C@@H](Cc1cnc[nH]1)C(=O)N[C@@H](CC(C)C)C(=O)N[C@@H](CC(N)=O)C(=O)N[C@@H](CO)C(=O)N[C@@H](CCSC)C(=O)N[C@@H](CCC(=O)O)C(=O)N[C@@H](CCCN=C(N)N)C(=O)N[C@H](C(=O)N[C@@H](CCC(=O)O)C(=O)N[C@@H](Cc1c[nH]c2ccccc12)C(=O)N[C@@H](CC(C)C)C(=O)N[C@@H](CCCN=C(N)N)C(=O)N[C@@H](CCCCN)C(=O)N[C@@H](CCCCN)C(=O)N[C@@H](CC(C)C)C(=O)N[C@@H](CCC(N)=O)C(=O)N[C@@H](CC(=O)O)C(=O)N[C@H](C(=O)N[C@@H](Cc1cnc[nH]1)C(=O)N[C@@H](CC(N)=O)C(=O)N[C@@H](Cc1ccccc1)C(=O)O)C(C)C)C(C)C` is recorded as 0.63 h⁻¹ (population pharmacokinetic model; postmenopausal osteoporotic women, serum; subcutaneous, 20 µg).
`Cc1nc(Nc2ncc(C(=O)Nc3c(C)cccc3Cl)s2)cc(N2CCN(CCO)CC2)n1` gave an EC20 of 127 µM (mitochondrial swelling; BALB/cByJ female mouse liver mitochondria; 30 min, with: succinate + rotenone; reference: CaCl2 maximal swelling).
With `Oc1ccc(-c2nc(-c3ccc(Oc4ccc(C(F)(F)F)cc4)cc3)no2)cc1` the elimination half-life was 40 h (ICR mice, female, plasma; oral, 50 mg/kg).
`CC(C)[C@H](N)C(=O)OCC1(CO)C/C1=C/n1cnc2c(=O)[nH]c(N)nc21.Cl` (mixture of isomers) has a clearance of 217 mL/min (item: prodrug; Swiss-Webster mouse (male), plasma; intravenous, 24.6 mg/kg, two-compartment model).
`CS(=O)(=O)n1cc2c(n1)CN([C@H]1CO[C@H](c3cc(F)ccc3F)[C@@H](N)C1)C2` has a Ctrough of 27.9 nM (healthy Japanese men, plasma; oral, 50 mg once weekly, day 15).
The EC20 of `CS(=O)(=O)OCCCCOS(C)(=O)=O` is reported as > 400 µM (cytochrome c release, ELISA; BALB/cByJ female mouse liver mitochondria; 30 min; reference: alamethicin maximal release).
`Cn1c(-c2ccc(C(N)=O)cc2F)nnc1C(C)(C)Oc1c(F)cc(Cl)cc1F`: “half-life range over subjects” 8.92 to 27.6 h (young non-Japanese adults, plasma; oral, 50 mg single dose, day 1, high-dose multiple-dose study).
For `CC(C)(c1ccc(O)cc1)c1ccc(O)cc1`, the half-life was 3.08 h (GC-MS; exposure tank water with snails, reconstituted water; 1000 ng/L nominal, 27 °C).
For `CCOc1c([C@H](C)n2nc(C)c3c(N)ncnc32)cc(Cl)c(F)c1[C@@H]1CNC(=O)C1`, “Vz/F geometric mean” read 52.9 L (healthy fasted humans, plasma; oral, 10 mg).

Repeated from above:
`O=C(c1cccnc1-c1ccncc1)N1CCC(O)(Cc2ccccc2)CC1` has a Vz/F of 1320 L (healthy human, plasma; oral, 600 mg once daily, day 1, arithmetic mean).
For `CC(=O)N[C@H](CSSC[C@H](N)C(=O)O)C(=O)N[C@H](C)C(=O)N[C@H](CCCNC(=N)N)C(=O)N[C@H](CCCNC(=N)N)C(=O)N[C@H](CCCNC(=N)N)C(=O)N[C@H](C)C(=O)N[C@H](CCCNC(=N)N)C(N)=O`, “SAPC conjugation rate constant” read 0.007 min⁻¹ (human whole blood; 5 µM, 37 °C, with: SAPC 2.5 µM).
With `CNC(=O)c1ccc(-c2cnc3ncc(Cc4ccc5ncccc5c4)n3n2)cc1F` the Vz/F (mean) was 366 L (human, mild hepatic impairment (Child-Pugh A), plasma; oral, 200 mg single dose).
